Published values collected from several papers.
Every numbered part comes from another study and shows a few of its results, in no order. Changes are numbered by the printed parent chain.

Study 1
Target: Histone acetyltransferase KAT6A, winged helix 2, GST fusion (KAT6A, Homo sapiens, UniProt Q92794, residues 85-181)
Method: protein binding microarray
Molecule type: double-stranded DNA, one strand shown
Medium: in vitro
Tested at: not given
Notes: 8-mer, flanks averaged, mean of 2 arrays, mostly near background
Reference: not given
Reading: higher = stronger binding
Measurement: E-score
Construct (chain): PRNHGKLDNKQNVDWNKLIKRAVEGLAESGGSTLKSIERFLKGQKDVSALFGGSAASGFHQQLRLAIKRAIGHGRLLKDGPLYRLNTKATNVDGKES
Oligonucleotide = GCCACTCA; value = 0.0441
Oligonucleotide = ATATAGTC; value = 0.0514
Oligonucleotide = ATATTTCG; value = 0.0938
Oligonucleotide = GAAAATTA; value = 0.0393
Oligonucleotide = GGGGGAAC; value = -0.062
Oligonucleotide = CACGCCGC; value = 0.197
Oligonucleotide = CGTGATCC; value = -0.00897
Oligonucleotide = CTTCTCCA; value = -0.118
Oligonucleotide = CCGGCGTA; value = 0.0335
Oligonucleotide = GCCGTTCA; value = -0.0274
Oligonucleotide = GATCCAGA; value = 0.169
Oligonucleotide = ACCCAGCG; value = 0.0881
Oligonucleotide = CACCTCTG; value = -0.0747
Oligonucleotide = CGTAGGAA; value = -0.0306
Oligonucleotide = ATGATGAG; value = -0.000605
Oligonucleotide = AGGTCATG; value = -0.102
Oligonucleotide = GCATGACC; value = -0.0701
Oligonucleotide = CTCCTCCA; value = 0.144
Oligonucleotide = TATTCGCA; value = 0.00446
Oligonucleotide = CTCGCGTC; value = 0.143
Oligonucleotide = GGCAAACC; value = 0.157
Oligonucleotide = AGAATTGG; value = -0.0509
Oligonucleotide = TAGTAGCA; value = 0.0573
Oligonucleotide = CACTGGCG; value = 0.162
Oligonucleotide = CCAATCGG; value = 0.0908

Study 2
Target: Hepatocyte nuclear factor 3-alpha (Foxa1, Mus musculus, UniProt P35582, residues 1-468, full length assumed)
Method: EMSA with sequencing
Molecule type: double-stranded DNA, one strand shown
Medium: in vitro
Tested at: 10 and 20 nM
Notes: whole designed probe, mean of two concentrations, ends assumed
Reference: negative control set to 0
Reading: higher = stronger binding
Measurement: normalised bound fraction
Shared flanks, not repeated: GTGAGCGGTGCCCATTGATGGGGAAC … TTTCACTGGGATCGTGGGGAC
Residues (chain): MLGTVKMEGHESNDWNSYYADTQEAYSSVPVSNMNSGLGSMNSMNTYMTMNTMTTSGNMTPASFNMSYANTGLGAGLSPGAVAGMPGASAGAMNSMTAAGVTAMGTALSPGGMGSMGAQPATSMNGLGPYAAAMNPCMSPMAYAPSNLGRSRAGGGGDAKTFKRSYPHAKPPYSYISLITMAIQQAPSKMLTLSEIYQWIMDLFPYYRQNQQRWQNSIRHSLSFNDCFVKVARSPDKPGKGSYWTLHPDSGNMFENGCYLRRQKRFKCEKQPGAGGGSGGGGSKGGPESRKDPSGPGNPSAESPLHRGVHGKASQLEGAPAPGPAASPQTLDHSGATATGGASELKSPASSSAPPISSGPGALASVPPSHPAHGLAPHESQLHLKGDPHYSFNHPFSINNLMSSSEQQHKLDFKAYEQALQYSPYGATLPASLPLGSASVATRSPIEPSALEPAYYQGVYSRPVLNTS
Oligonucleotide = AAAAGATTTGGTATCGTTTAAAAAAAAAAAAAAGCTGGGTGGGGCCGAGGAGAATCCACCCAAACTTTCCTCAGGAAGTAGGAAGATTACTGAGTAATTTTGCGGTAGTCACAGAAACACCTGCTACTCCTTTAAGACCTCAGGAGCCACCACCGCCACCTCCTGGCCACATCCGGGCACTTCTCTGCAAACT; value = -0.0349 ratio
Oligonucleotide = TTCTGGTAACTCCAACTTTTGGCTCATTTGTGGGTCAGACAGATCTGAGAAGCTTGGTTTTTTTTTACTCTGTCTCAGGTACTTTATATTTAGTGTTTACATTCCTAGCCAGAGAAGCATTTATGTAAACACTCTCTATATTTAATGACTCAGTTTAAGAAAATGCTTACAATAATTGAGGTCTCCTTGTTTC; value = 0.46 ratio
Oligonucleotide = GGGTCCCGGGCGGCGGCAGGAATGCAGGAATGCGCACAGGCTGTGGGCGGCCAGGAGGGAGTCCCGGCGCCTGCCCCGGCGGAAGTGAGTCTTTGTGTACCCTGTCCAACACCTCCCCCCGCCAGCGCGGAAGGCCGGGCTACCTGCGCGCCTGGCAGCGCCTGGCAGCCGGCTGGGTGGGGCGCAGGGGAGC; value = 0.00165 ratio
Oligonucleotide = CCTTTGGGTTATTCACCTAGATCCCTTAAGGTTTAAAATCAATTCTACAGGGACTTTTGAACTTAGACTTTCACTCCATATGTTAGGACTTATAAATTACATTATAGTTTGCTGTTAACTTAGCTGTTTATGTAGGTGTTCAAAGCTACATGAACGGCGAACTATAAGGTAATTTAGAAGCTTTCCCAAGACA; value = -0.0016 ratio
Oligonucleotide = ATCTTCCCCCTCTTCCTTGCCCCACCAGCTCACCTACGGGGGTTATTTGCACAAAGGAAAATAAATAAAGCCGGCATTCGTTAACCCTCTTCACGCGCATACTGCTGTTTGCTCTGCATCTAACATGGTCCTTACGCGAGGCGTGGCTCCGGGAGAGCAAAGCACCGTGTCAGGCGCATGATCCGGGCTCGCC; value = 0.395 ratio
Oligonucleotide = GGTACAGGAAGTAAAAGGTTTCAGTATAAAATATTCAGTCTCCTCAGTGGAAAAGAACCTTCCATAACACAGATCAATAACAGGCTGCTTCCTGTTTACTCTGCCTAACTGGGGACTTTAGTATAAAACCTGATTACTGTTATCAGCAAGAAGCTGATTTGGCTGCTCTAAGGAGAGTCATCCAAATTAAAGA; value = 0.119 ratio
Oligonucleotide = TCTTTCACTCAAGTGGTATATCCCACAGCCCTAAAGAAGCAAGGGAAATAAGAATTAGAACTAGACATCCCAGGAGACAAAGAATTCAACAAAGCAAACATTAACACTTCCTGCCCAATCCCTTCACTATTTACAGAAAATCTCTCTGGCTCAGGCCGGGCAGTGAGTTCATTTATTTCAACAAAATCAAAGA; value = 0.358 ratio

Study 3
Target: Interferon regulatory factor 7, full length, phosphomimetic (IRF7, Homo sapiens, UniProt Q92985, residues 1-503, S471D/S472D/S475D/S476D/S477D/S483D/S484D/S487D)
Method: protein-binding microarray
Molecule type: double-stranded DNA, one strand shown
Medium: in vitro
Tested at: 2200 nM top
Notes: 60-bp whole probe
Together with: salmon DNA 0.4 mg/ml
Reference: random background probes
Reading: higher = stronger binding
Measurement: fitted relative affinity
Shared flanks, not repeated: GCCTAGCAC … GTCTTGATTCGCTTGACGCTGCTG
Residues (chain): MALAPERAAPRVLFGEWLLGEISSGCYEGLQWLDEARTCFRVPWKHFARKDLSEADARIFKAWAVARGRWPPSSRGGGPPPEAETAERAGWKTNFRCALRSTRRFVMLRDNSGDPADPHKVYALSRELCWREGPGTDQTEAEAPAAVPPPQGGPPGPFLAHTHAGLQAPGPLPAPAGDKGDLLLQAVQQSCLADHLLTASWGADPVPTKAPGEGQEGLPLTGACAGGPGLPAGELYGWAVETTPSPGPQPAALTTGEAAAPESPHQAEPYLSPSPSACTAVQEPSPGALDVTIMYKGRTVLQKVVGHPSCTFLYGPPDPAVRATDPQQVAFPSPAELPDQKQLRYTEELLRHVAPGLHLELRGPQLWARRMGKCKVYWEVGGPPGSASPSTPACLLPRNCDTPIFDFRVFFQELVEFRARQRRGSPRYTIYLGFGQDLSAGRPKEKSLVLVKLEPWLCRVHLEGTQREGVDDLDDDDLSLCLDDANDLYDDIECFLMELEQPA
Oligonucleotide = GACGGTTTCGGTTTCGGAACGTGCTAG; value = 15.6 z-score
Oligonucleotide = GACGAATTGGGGTATCGAGACGTGCTA; value = 0.408 z-score
Oligonucleotide = GTGGAAATCAGTATGTTCCCGTGCTAG; value = 0.839 z-score
Oligonucleotide = TGAGATTTCGGGTTTCGATTAGTGCTA; value = 6.11 z-score
Oligonucleotide = TTAGATTTCAGTTTCGAGTAGTGCTAG; value = 5.4 z-score
Oligonucleotide = GGCGGTTTCGGTTTCGGGACGTGCTAG; value = 15.1 z-score
Oligonucleotide = TTAGGTTTCGGGACTGGGTTTGTGCTA; value = 3.31 z-score
Oligonucleotide = TTAGAGTTCAGTCTCGATTAGTGCTAG; value = -0.156 z-score
Oligonucleotide = GACGAACTGAGACTGGAGACGTGCTAG; value = -0.164 z-score
Oligonucleotide = TTGGGTTTCGACACTGGGTTAGTGCTA; value = 1.79 z-score
Oligonucleotide = AGTTGTTTTAAATTCTAATTGTGCTAG; value = 0.258 z-score
Oligonucleotide = TTAAATATCAGTTTCGATTAGTGCTAG; value = 5.64 z-score
Oligonucleotide = TCACATTGCTTTCTCTTACTGTGCTAG; value = 2.91 z-score
Oligonucleotide = TAATATCTAAGATTCTAGCCGTGCTAG; value = -0.585 z-score
Oligonucleotide = GACGGTTTCCTAATGCTGACGTGCTAG; value = 2.02 z-score
Oligonucleotide = GAAGCTTCCTCTCTGCCACTGTGCTAG; value = 0.728 z-score
Oligonucleotide = GACGGTATCGTTTTCCTGACGTGCTAG; value = 2.27 z-score
Oligonucleotide = TCAGCTTTCTCTTTCATACTGTGCTAG; value = 5.58 z-score
Oligonucleotide = TTAGAACTGGGGTTTCGATGAGTGCTA; value = 0.333 z-score
Oligonucleotide = TTAGGTCTCCTACTGGTTTAGTGCTAG; value = 0.547 z-score

Study 4
Target: Ras GTPase-activating protein-binding protein 1, full length (G3BP1, Homo sapiens, UniProt Q13283)
UniProt Q13283, sequence (whole entry, looked up): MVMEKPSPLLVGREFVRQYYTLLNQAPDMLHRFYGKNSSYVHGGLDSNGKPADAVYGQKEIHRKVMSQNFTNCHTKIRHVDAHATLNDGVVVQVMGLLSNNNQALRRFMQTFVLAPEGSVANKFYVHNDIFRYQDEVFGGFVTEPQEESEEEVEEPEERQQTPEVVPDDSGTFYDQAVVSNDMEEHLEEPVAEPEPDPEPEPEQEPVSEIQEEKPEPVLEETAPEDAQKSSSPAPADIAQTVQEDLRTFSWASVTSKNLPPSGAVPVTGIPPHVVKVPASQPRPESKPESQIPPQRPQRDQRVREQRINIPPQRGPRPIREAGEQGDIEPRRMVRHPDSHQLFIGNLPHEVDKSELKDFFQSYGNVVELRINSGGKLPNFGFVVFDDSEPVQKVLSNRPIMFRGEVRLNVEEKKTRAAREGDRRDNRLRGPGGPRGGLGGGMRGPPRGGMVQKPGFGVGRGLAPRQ
Method: RNA Bind-n-Seq
Molecule type: RNA
Medium: in vitro
Tested at: 200 nM
Notes: whole 134-nt RNA, ends assumed
Together with: 150 mM KCl
Reference: input library
Reading: higher = stronger binding
Measurement: log2 enrichment
Shared flanks, not repeated: GGGAGUUCUACAGUCCGACGAUC … UGGAAUUCUCGGGUGUCAAGG
Oligonucleotide = AAGUCCUGUGCUACACAUCGUAUGUACCGAAUCGGGAAAAAAAGGGAGGGUUUGGGAAAGUAUUAUGUUACGCCGUUCGGAUCUGCACUU; value = 0.129
Oligonucleotide = AGUCCUGUGCUACACAUCGUAUGUACCGAAUCGGGCCCCCGGCCCCCGGCCCCCGGGGAAAGUAUUAUGUUACGCCGUUCGGAUCUGCAC; value = -0.606
Oligonucleotide = UCCUGUGCUACACAUCGUAUGUACCGAAUCAAAUUUUUAAACCCCCAAACCCCCCCAAAAAAGUAUUAUGUUACGCCGUUCGGAUCUGCA; value = 0.108
Oligonucleotide = UUAGGCACUUGUUGGGCUCAUCACCGUUGUGUGGAGUGGUCACUAGGAGUAUGCCAGAUGGAAGAACCAUUGUUAGUGAACGUGGACAAA; value = -1.99
Oligonucleotide = ACCAUGCAGGUGGGCAUCUUUGGGAAGUGGGGCAAGGGGGGGAUAGGGAGGGGGGUAACUCUUUGGGAACAGGUGGUCCCAGGUCGUUUC; value = 1.3
Oligonucleotide = CUGUGCUACACAUCGUAUGUACCGAAUCGGGUUUUUUUGGGAAAAAAAGGGUUUUUUUGGGAAAGUAUUAUGUUACGCCGUUCGGAUCUG; value = -1.41
Oligonucleotide = UGGCCCUGGUGGCAUGCGGGGAGGAAGAGGUGGCCUCAUGGAUCGUGGUGGUCCCGGUGGAAUGUUCAGAGGUGGCGGUGGUGGAGACAG; value = 0.561
Oligonucleotide = GCUGGAAGUAAAAACAAAUGGAAAUGCUUCGGAUAGUGGCAGGGGUGGGGGUUGCUAAGGAAAGGGUGGGAUGGGAGUGGGUAAAGAGUU; value = 1.14
Oligonucleotide = CACAGACAACACGCACCCACACAGACACAGAGGGAAGGGGUUGGGAUGGGGACAGGGUGCACAGCAGGGCGGGGUAGGACCCCAGGCCCU; value = 1.81

Study 5
Target: CCND1, cyclin fold, Cln2 fusion (human)
Method: yeast growth competition, sequencing
Medium: yeast
Notes: weak parent motif
Reference: not given
Reading: higher = stronger binding
Measurement: normalised enrichment score
Starting sequence: ORC1 docking peptide (human); PRARKRLELGNLG; partner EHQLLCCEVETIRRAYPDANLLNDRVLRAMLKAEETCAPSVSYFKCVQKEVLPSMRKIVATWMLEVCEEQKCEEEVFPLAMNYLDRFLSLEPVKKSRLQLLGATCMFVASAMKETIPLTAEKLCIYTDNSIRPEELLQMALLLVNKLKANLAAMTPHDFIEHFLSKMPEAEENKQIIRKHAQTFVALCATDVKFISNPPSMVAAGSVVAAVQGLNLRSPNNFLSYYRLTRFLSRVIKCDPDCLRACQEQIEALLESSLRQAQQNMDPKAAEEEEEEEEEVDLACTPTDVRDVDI
Variant = R6F; value = 0.509
Variant = R2A; value = -0.157
Variant = P1Q; value = 0.185
Variant = L7S; value = -0.341
Variant = L7A; value = -0.142
Variant = K5Y; value = -0.244
Variant = A3S; value = 0.255
Variant = A3M; value = 1.29
Variant = K5V; value = -0.359
Variant = N11M; value = 0.587
Variant = G10I; value = 0.0623
Variant = G13I; value = -0.00816
Variant = G10Q; value = -0.463
Variant = P1D; value = 0.605
Variant = N11A; value = -0.209
Variant = L7K; value = 0.226
Variant = N11V; value = 0.27
Variant = G13D; value = 0.0153

A few entries again (study 3):
Oligonucleotide = GACGAACTGAGACTGGAGACGTGCTAG; value = -0.164 z-score
Oligonucleotide = TTGGGTTTCGACACTGGGTTAGTGCTA; value = 1.79 z-score
Oligonucleotide = AGTTGTTTTAAATTCTAATTGTGCTAG; value = 0.258 z-score
Oligonucleotide = TTAAATATCAGTTTCGATTAGTGCTAG; value = 5.64 z-score
Oligonucleotide = TCACATTGCTTTCTCTTACTGTGCTAG; value = 2.91 z-score
Oligonucleotide = TAATATCTAAGATTCTAGCCGTGCTAG; value = -0.585 z-score
Oligonucleotide = GACGGTTTCCTAATGCTGACGTGCTAG; value = 2.02 z-score
